Results of several laboratories.
Every numbered part comes from another study and shows a few of its results, in no order. Substitutions count along the parent as printed.

Series 1
Target: RNA binding protein fox-1 homolog 2, RRM domain, GST-SBP tag (RBFOX2, Homo sapiens, UniProt O43251-10, residues 100-194)
Method: RNA Bind-n-Seq
Form: RNA
Sample: in vitro
Tested at: 365 nM
Notes: natural RNA segment, single round, ends assumed
Reference: no-protein control
Reading: higher = stronger binding
Constant ends, left off below: GGGAGUUCUACAGUCCGACGAUC … UGGAAUUCUCGGGUGCCAA
Construct (chain): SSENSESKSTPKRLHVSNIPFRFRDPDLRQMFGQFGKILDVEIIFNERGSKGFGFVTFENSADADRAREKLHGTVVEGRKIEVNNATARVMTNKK
Oligonucleotide | RBNS enrichment (R)
AAUGGAGACUUCCGGAUCCUGUCAGGGUGUCCCCCAUGCCUGGAAGAGGAGCUGGUGGCUGCCAGCCCUGGGGCCCGGCACAGGCCUGGGCCUUCCCCUUCCCUCAAGCC | 0.171
CACCUAGAUUGUAAGCUCCCUGGGCCAGGACUUCAGCCUGCCUCCGAGGGUCCCCUGUGGCACCUAGCAUGGUGCACAGCACAUUAGAAGUGCUCAAAAACAUCUGAUGA | 1.59
ACCCGCACACAUAAAGCGUCAAGUCUGGAAAACUCAUUCCUCAUACACAGGCCUCCUGUAGUCAUAGCAACAGAGAUGACCUAGGUGCACCCACCUUAGGUGGAGGACUU | 0.572
GCCAUGCCCCCAGCACCUUGCACAUAGGUGUCUGAUAAAAGUUUAAGAAAGUAAACACUUUUUGAGCACCAAAUAUAUAUAGGGCAUUGUUCUGGUGGGUGUGUCACGCU | 0.418
UGGGGGUUUUCAAUGUGAAACACAUGCCAGUUUUUAAAAUGCUGCUUUGUCCAGGUGAGAACAUCCAUAAUUUGGGGCCCUGAGUUUUACCCAGACUCAAGGAGUUGGUA | 0.345
CCAGUGUGCUCGCCAUGAGCUGGGUCAGGGCUGGGGAGUUGUGCAGGCUGGGGUGACCCUUCCCCCAUCAUUGGGCCCCAACGGGCAUGUCUCCACCGAAUCCAUUUAGA | 0.902
GCUCCUCCAGCUGUAUCUGCACCUGCCUCUCUGUCCUGGCCAGGGGUGGACAACUGGGGUCCCCCAAAACUCAGUCCUGGCACCUCAACUGUGACAAUCAGCAAAGCCCC | 0.34
UGUUCUUCUCGUGGGUUUGUGCCGUGCUGCUUUCCAAAUAGGUAUUGAAUUUAUGCAUUAGUCUGGUGAUUUCAGUUCUGUGAAAUAUUUUGGGAUCUAUACCAAUUAAA | 0.706
ACACCCAUUUCUAUUCAUUUCUGUAUAAAGAACAGUACAGAACAGUAUCGGGAUCUUUGUUGGUUUGACAUUGCUGUUUUGGGUUAAGAUAUUGAGUCUAGGCUCCAAUU | 0.347
UUAUGAUCCACCCCUCUCGGCCUCCCAAAGUGCUGGGAUUACAGGCGUGAGCCACCGCACCCGGCCUCAAAUGGAAAUAUUUCACAGAGGAGUGGUUCAGUUUAGCCCUG | 0.21
UCUGCCAGAGAGUGUCAGCUCUGUCAUCCACCAUAUUUCGACAGCCGCUCCUUGCUGCUACACGGGGUAGGAGGACAUACAAAUAAUUGCUUCUCGUUCUUAGCAGGGAU | 0.3
UAAAGGCACAUGUUGGAACACAUCCAGUCCUGCUGACCUGUAGAUAAUUAUUUUUCUCUAAAUGAACUGUACAUUUAUCUUAAAUAAAAAUUUAUUUUUGAGAUAACUGU | 0.382

Series 2
Target: CCNE1, cyclin fold, Cln2 fusion (human)
Method: yeast growth competition, sequencing
Sample: yeast
Notes: weak parent motif
Reference: not given
Reading: higher = stronger binding
Starting sequence: USP37 docking peptide (human); PSAKRSLGFLPQP
Substitution | normalised enrichment score
R5A | -0.0534
Q12A | 0.615
F9A | 0.0162
L7A | 0.276
G8A | 0.214
P13A | 0.127

Series 3
Target: Ras GTPase-activating protein-binding protein 1, C-terminal RGG region (G3BP1, Homo sapiens, UniProt Q13283)
Chain of UniProt Q13283 (whole entry, looked up): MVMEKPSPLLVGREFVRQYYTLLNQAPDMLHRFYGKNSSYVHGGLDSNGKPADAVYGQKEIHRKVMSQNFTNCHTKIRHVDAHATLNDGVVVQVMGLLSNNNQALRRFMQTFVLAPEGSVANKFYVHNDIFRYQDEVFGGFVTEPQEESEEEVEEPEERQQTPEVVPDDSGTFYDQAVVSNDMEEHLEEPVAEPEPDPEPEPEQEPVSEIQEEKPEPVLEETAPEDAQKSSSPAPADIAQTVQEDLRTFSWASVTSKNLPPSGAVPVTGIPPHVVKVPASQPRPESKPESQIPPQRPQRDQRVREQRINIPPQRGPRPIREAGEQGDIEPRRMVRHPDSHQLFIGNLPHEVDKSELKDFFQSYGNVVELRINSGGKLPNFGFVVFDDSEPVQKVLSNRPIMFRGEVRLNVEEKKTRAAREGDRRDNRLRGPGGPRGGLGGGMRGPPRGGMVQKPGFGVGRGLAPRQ
Method: RNA Bind-n-Seq
Form: RNA
Sample: in vitro
Tested at: 1 µM
Notes: whole 134-nt RNA, ends assumed
With: 150 mM KCl
Reference: input library
Reading: higher = stronger binding
Constant ends, left off below: GGGAGUUCUACAGUCCGACGAUC … UGGAAUUCUCGGGUGUCAAGG
Oligonucleotide | log2 enrichment
CACAGACAACACGCACCCACACAGACACAGAGGGAAGGGGUUGGGAUGGGGACAGGGUGCACAGCAGGGAGGGGUAGGACCCCAGCCCCU | -0.864
ACCAUGCAGGUGGGCAUCUUUGGGAAGUGGGGCAAGGGGGGGAUAGGGAGGGGGGUAACACUUUGGGAACAGGUGGUCCCAGGUCAUUUC | 2.04
CCUCAAGUCCUGUGCUACACAUCGUAUGUACCGAAUCGGGGCGGCGGGGCGGGAAAGUAUUAUGUUACGCCGUUCGGAUCUGCACUUCCA | 0.0832
GUCCUGUGCUACACAUCGUAUGUACCGAAUCGGAAAAAAAGGAAAAAGGAAAAAAAGGAAAGUAUUAUGUUACGCCGUUCGGAUCUGCAC | -1.51
CACAGACAACACGCACCCACACAGACACAGAGGGAAGGGGUUGGGAUGGGGACAGGGUGCACAACAGGGCGGGGUAGGACCCCAGCCCCU | -0.408
UGGGAGGUGGAUUUUGUUUAUUUUUUUAGCUCUUUUCCAGGGGUGGGAAUUUUUUUUUAAUAUGUGUCAUGAAUAAAGUUGUUUUUGAAA | 2.84
UCCUCAAGUCCUGUGCUACACAUCGUAUGUACCGAAUCGGCGGCGGGGCGGGAAAGUAUUAUGUUACGCCGUUCGGAUCUGCACUUCCAG | -0.263
UGGGAGGUGGAUUUUGUUUAUUUUUUUAGCUCAUUUCCAGGGGUGGGAAUUUUUUUUUAAUAUGUCUCAUGAAUAAAGUUGUUUUUGAAA | 2.54
UUCUCUAAGAGGAACUCCGGCGCGUCAGAGUAACAGAAGCGAGAGCACAGACAGUCUUGGGGGCUUGUCUCCCUCUGAAGUCACAGCCAU | -0.279
CACAGACAACACGCACCCACACAGACACAGAGGGAAGGGGUUGGGAUGGGGAGAGGGUGCACAGCAGGGCGGGGUAGGACCCCAGCCCCU | 0.227
UCCUGUGCUACACAUCGUAUGUACCGAAUCGGAAAAAAGGAAAAAAGGGAAAAAAGGGGAAAGUAUUAUGUUACGCCGUUCGGAUCUGCA | -1.73
AAGUCCUGUGCUACACAUCGUAUGUACCGAAUCGGGAAAAGGAAAAGGGGAAAAGGAAAGUAUUAUGUUACGCCGUUCGGAUCUGCACUU | -1.7

Series 4
Target: UBE2J2 UBC core domain (UniProt Q8N2K1)
Method: yeast two-hybrid
Sample: yeast
Notes: mostly zero background
Reference: not given
Reading: higher = stronger interaction
B1: NSMCE1 RING domain (UniProt Q8WV22); chain RETYPDAVKICNICHSLLIQGQSCETCGIRMHLPCVAKYFQSNAEPRCPHCNDYWPHEIPKV
B2: RNF4 RING domain (UniProt P78317); chain TGLRPSGTVSCPICMDGYSEIVQNGRLIVSTECGHVFCSQCLRDSLKNANTCPTCRKKINHKRYHP
B3: TRIM10 RING domain (UniProt Q9UDY6); chain SVTSLADEVNCPICQGTLREPVTIDCGHNFCRACLTRYCEIPGPDLEESPTCPLCKEPFRPGSFRP
B4: RNF14 RING domain (UniProt Q9UBS8); chain IKCFNSKLFLCSICFCEKLGSECMYFLECRHVYCKACLKDYFEIQIRDGQVQCLNCPEPKCPSVATPGQVK
B5: RFPL2 RING domain (UniProt O75678); chain MAALFQEASSCPVCSDYLEKPMSLECGCAVCLKCINSLQKEPHGEDLLCCCSSMVSRKNKIRR
B6: PEX2 RING domain (UniProt P28328); chain DNTLATSGKECALCGEWPTMPHTIGCEHIFCYFCAKSSFLFDVYFTCPKCGTEVHSLQPLK
B7: TRIM52 RING domain (UniProt Q96A61); chain PMQTLQEEAVCAICLDYFKDPVSISCGHNFCRGCVTQLWSKEDEEDQNEEEDEWEEEEDEEAV
B8: MSL2 RING domain (UniProt Q9HCI7); chain LLPYFRQSLSCCVCGHLLQDPIAPTNSTCQHYVCKTCKGKKMMMKPSCSWCKDYEQFEENKQ
B9: ANKIB1 RING domain (UniProt Q9P2G1); chain LSPGDLDTSLCDICMCSISVFEDPVDMPCGHDFCRGCWESFLNLKIQEGEAHNIFCPAYDCFQLVPVDIIE
B10: RNF112 RING domain (UniProt Q9ULX5); chain QPMAPRELPTCSICLERLRDPISLDCGHDFCIRCFSTHRLPGCEPPCCPECRKICKQKRGLR
Residues (chain): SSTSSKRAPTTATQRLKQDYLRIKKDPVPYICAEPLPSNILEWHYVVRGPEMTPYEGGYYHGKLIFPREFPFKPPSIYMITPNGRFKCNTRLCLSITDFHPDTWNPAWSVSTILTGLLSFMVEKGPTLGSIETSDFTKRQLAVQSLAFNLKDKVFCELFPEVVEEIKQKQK
Sequence | lacZ reporter activity
B1 (NSMCE1 RING domain) | 2510
LKQVSIRENCCSLCCDEVADTQLKPCGHSDLCMDCALQLETCPLCRKEIVSRIRQI (RSPRY1 RING domain (UniProt Q96DX4)) | 0
B2 (RNF4 RING domain) | 0
B3 (TRIM10 RING domain) | 0
FLKKLEQSFMCVCCQELVYQPVTTECFHNVCKDCLQRSFKAQVFSCPACRHDLGQNYIMI (UHRF2 RING domain (UniProt Q96PU4)) | 2510
B4 (RNF14 RING domain) | 0
SYEDKSNDFVCPICFDMIEEAYMTKCGHSFCYKCIHQSLEDNNRCPKCNYVVDNIDHLY (COP1 RING domain (UniProt Q8NHY2)) | 0
B5 (RFPL2 RING domain) | 0
QLQDEEDDSLCRICMDAVIDCVLLECGHMVTCTKCGKRMSECPICRQYVVRAVHVF (RNF34 RING domain (UniProt Q969K3)) | 0
B6 (PEX2 RING domain) | 0
B7 (TRIM52 RING domain) | 0
ISNDSETLEECMVCSDMKRDTLFGPCGHIATCSLCSPRVKKCLICKEQVQSRTKIE (MIB1 RING domain (UniProt Q86YT6)) | 0
B8 (MSL2 RING domain) | 0
B9 (ANKIB1 RING domain) | 0
B10 (RNF112 RING domain) | 0
